Experimental data gathered from unrelated publications.
Compare with care: the assays were run in different laboratories. Values joined by “and” are separate records of one study, mostly repeats; a detail may differ. Numbers after ± are the reported error.

CCCCCCCOc1ccc(CCC(N)(CO)CO)cc1C(F)(F)F.Cl has a renal clearance of 0.0112 mL/min (healthy men; oral, 0.25 mg, day 1).
CCO[C@H]1CCN(Cc2c(OC)cc(C)c3[nH]ccc23)[C@H](c2ccc(C(=O)O)cc2)C1 has a t½ of 18.7 h (healthy human controls, plasma; oral, 200 mg, single dose, median).
With COc1ccnc(C(=O)NC(CO)C(=O)O)c1O (racemic) the DT50 water was 4.86 days (Staffordshire loam sediment, aerobic dark; 20 °C).
For COc1ccc([C@@H](O)c2cc(-c3ncnc4cc(N5CCOCC5)ccc34)c(F)cc2Cl)nn1, “nausea TEAE incidence” read 100% (locally advanced rectal cancer patients; 50 mg, added: capecitabine and radiotherapy).
For Cc1cccc(CNC(=O)c2cn(CCNC(=O)c3ccccc3Sc3c([N+](=O)[O-])ncn3C)c3cc4c(cc3c2=O)OC(F)(F)O4)n1, the AUC(0-t) was 30.6 ± 12 ng·h/mL (Sprague-Dawley rat, male, whole blood; intramuscular, 3 mg/kg of parent compound).
Under “liver to body weight ratio”, COc1ccc2c3c([nH]c2c1)[C@H](CC(C)C)N1C(=O)[C@H](CC(=O)NC(C)C)NC(=O)[C@@H]1C3 is recorded as 4.63% and 4.67% (wild-type mouse; oral, 100 mg/kg daily, 23 days).
CCn1c(=O)c(-c2cc(NC(=O)Nc3ccccc3)c(F)cc2Br)cc2cnc(NC)cc21: “participants with drug-related TEAE” 50% (measured: lipase increased; healthy human, matched to severe hepatic impairment; oral, 50 mg single dose).
CNCc1ccc(-c2[nH]c3cc(F)cc4c3c2CCNC4=O)cc1 — result for “any adverse event incidence”: 100% (patients; oral, 240 mg twice daily, all grades).
Under “grade ≥3 Syncope patients”, COc1cc2nccc(Oc3ccc(NC(=O)c4cc5c(n(-c6ccccc6)c4=O)CCCC5=O)nc3)c2cc1OC is recorded as 0% (relapsed or refractory AML; oral, 6 mg once daily).
Cc1ccc([C@@H]2O[C@H](CO)[C@@H](O)[C@H](O)[C@H]2O)cc1Cc1ccc(-c2ccc(F)cc2)s1 — result for “urinary phosphate excretion change”: -8.52 mg (measured: inorganic phosphorus; Japanese type 2 diabetes patients; 100 mg, day 5, 24 h urine collection; relative to: baseline).
C=CC(=O)Nc1cc(Nc2nccc(-c3cn(C)c4ccccc34)n2)c(OC)cc1N(C)CCN(C)C gave a percentage recovery of 10.9% (storage stability; human plasma samples; 30 d, -80 °C, MQC level; relative to: nominal concentration).
CC(C)n1c(Nc2cccnc2)nc2cnc(Nc3ccc(N4CCN(C)CC4)cc3)nc21: “subjects with grade 3 TEAEs” 7.1% (healthy male humans; oral, dose not given, drug interaction study, all arms).
For COc1ccc2c(=O)n(C)c(-c3ccccc3)nc2c1, the concentration was 15 ng/mL (Sprague-Dawley rat, male, large intestine; oral, 30 mg/kg, 0.25 h).
For O=C(N[C@H](Cc1c[nH]c2ccccc12)C(=O)Nc1ccncc1)c1ccc(-c2cc(C(F)(F)F)ccc2F)cc1F, the concentration was 9.41 µM (Swiss Webster mouse, female, muscle; oral, 50 mg/kg, 8 h, 20% Kolliphor vehicle).
Under “incidence of treatment-related AE”, Cc1cc(-c2nnc(N)nc2-c2ccc(F)cc2)cc(Cl)n1 is recorded as 20% (measured: decreased appetite, any grade; IO-naive CRC patients; oral, dose not given).
Cc1nc(-c2ccc(OCC(C)C)c(C#N)c2)sc1C(=O)O: “participants with AEs grade 1 or above” 25% (healthy Chinese subjects; oral, 40 mg single, fed).
CC(C)(C(=O)N1CCOc2c(C#N)cncc2C1)C(F)F — result for “subjects with adverse event”: 0% (measured: abdominal discomfort; human; oral, 20 mg once daily, 14 days, multiple ascending dose).
CN(c1ccc(F)cc1)c1c(-c2cc(Cl)ccn2)nc2ccccn12 has a CC50 of 31.6 µM (peritoneal macrophages, Swiss mice; 5 days, 5% fetal calf serum).

A few entries again:
Under “liver to body weight ratio”, COc1ccc2c3c([nH]c2c1)[C@H](CC(C)C)N1C(=O)[C@H](CC(=O)NC(C)C)NC(=O)[C@@H]1C3 is recorded as 4.63% and 4.67% (wild-type mouse; oral, 100 mg/kg daily, 23 days).
For COc1ccc([C@@H](O)c2cc(-c3ncnc4cc(N5CCOCC5)ccc34)c(F)cc2Cl)nn1, “nausea TEAE incidence” read 100% (locally advanced rectal cancer patients; 50 mg, added: capecitabine and radiotherapy).
